Measured values collected from several papers.
Each numbered part is a random draw from the data of one study; scales do not carry over between parts.

Series 1 — technique: RNA Bind-n-Seq; molecule type: RNA; matrix: in vitro; tested at: 100 nM; reference: input RNA pool; reading: higher = stronger binding; measurement: bound/input enrichment
Target: RING finger protein unkempt homolog, zinc fingers 1-6, SBP tag (UNK, Homo sapiens, UniProt Q9C0B0, residues 30-357)
Sequence of UniProt Q9C0B0 (30-357, looked up): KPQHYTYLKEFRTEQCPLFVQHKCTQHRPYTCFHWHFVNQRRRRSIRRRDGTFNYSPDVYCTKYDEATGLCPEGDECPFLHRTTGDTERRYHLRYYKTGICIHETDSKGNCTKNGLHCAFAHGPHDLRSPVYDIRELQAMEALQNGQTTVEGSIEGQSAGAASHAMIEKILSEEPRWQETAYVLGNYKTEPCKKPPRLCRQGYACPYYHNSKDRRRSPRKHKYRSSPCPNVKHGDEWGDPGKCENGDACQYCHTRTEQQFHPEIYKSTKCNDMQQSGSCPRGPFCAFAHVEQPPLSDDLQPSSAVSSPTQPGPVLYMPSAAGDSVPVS
Notes: RNA with constant flanks, vertebrate orthologous sites, ends assumed
All sequences stand within: GGGAGUUCUACAGUCCGACGAUC … CAACAGAGGAUUGAGCAUCA
UUGGGACCAACUCCCCAAAUAAGAAUACUAGUAAAAAAAAUAAGCAAAAUGAUAUUUGUAUAGAAAAAACAGAAGUUAAAUCGUGUAAAGUAAAUGCCGCCAGUGUUCCAGGUCCUAAAG: 3.01 ratio
CUGAAGCUUUGUGUUUGGCUGCACCUGCAUAAGCUGCUACAAAUAGAAUAAAGAAUUUCAUAGCCUGUAUCUAUCGUUUAGAUGCAUGGAAAAAUGGGCUUUGCACACAAUGGGUUUGGA: 2.57 ratio
AUGCACAUGCCACCAUCACCGAAAACAAACUCACUUCUCCAACUCCAUCCAGAGCUGAUUUAGUGUUUCCCAUUCCCCACCUUUCCUACUACUUUCAGUGAUCAAAUAUCCUAAGUUCUC: 1.89 ratio
ACUUAAAAUGUACUUAGUUAUAGUUAAUGACCGCAUUCCUGAGUUCCUUUUUCAUUAAUGUAGAUUUCCAUUCCUAUUAUUGCACUUUUAAUAAUAUGAAUAAAUAGAAGGUUUGUGCCA: 0.739 ratio
CACAUCUGGUGAUAUUUGGCCUGGCCUUUCUGCUUAUGAUAAUAGUCCCAGAUCACCCCAUAGUCCUUCACCUAUUGCUACACCACCUAGUCAGAGUUCAUCAUGCUCUGAUGCCCCCAU: 0.993 ratio
AUUGUGUGUGAAAUAUGUCUGAGAAGAGAUGUAGCAUUCUAUAAAUAUUACCAAGUAAUUUAGCUAUAAUAUUUUUAGAUAUAAAUUACAUGUCAAGCAUUUAAAGUAUGAAUUUGAGGU: 0.302 ratio
GGAAAGCUACAGACCAGACUCUGAAAGUAGAAGCACAGGGUCCUGGUUGUCAUCAUCUUUGAGGAACAGAUGUACGCCCCUCUUCUCCAGAAGACGGAGAGAAGGAAGAGAUGAGUCUGC: 0.293 ratio
CUCUCUGAGCGGGAGCCUGCCGUCUGUGGCCGAUUCGCACUGCAGCCACUUCUCGGAGUUCAGCUGCUCCGACCUGGACGCCUGCCGUCCACACGAACUGCAUUCUAGGCCUUCGAAUGC: 0.377 ratio
ACGUAUUUAUACUGGCCAAACAUUUUUGACUUUGUAUUUCUUUGUCCUUUUUUGGUAGUUCUUGUUGUUACCCGCACCAUUUUUAUGUCUCCUUCACUGAAGGGCUAGAGUUUUAACUUU: 0.661 ratio
AAUGUUUUCUUAUUUAUGAGGAUAGUUUUGUGCUAAGAACUGUGUGAAAGAUUAAAAACGUAGUGAGUUGAUUGUGUCUUUACUUUCAUUAUUGAAAAUAAAUAUAACUUUGUAUUUGAG: 0.397 ratio
CAAUUCCAUGGUGGAGGGUUCCGAACUCAAAAAGGUCCGCUCCAACUCUCGAAUUUACCACAGGUAUUUUUUGCUGGACGCCGACAUGCAGAGCCUGAGGUGGGAACCAUCCAAGAAGGA: 0.225 ratio

Series 2 — technique: RNA Bind-n-Seq; molecule type: RNA; matrix: in vitro; tested at: 1 µM; notes: whole 134-nt RNA, ends assumed; with: 150 mM KCl; reference: input library; reading: higher = stronger binding; measurement: log2 enrichment
Target: Ras GTPase-activating protein-binding protein 1, RRM domain (G3BP1, Homo sapiens, UniProt Q13283)
Sequence of UniProt Q13283 (whole entry, looked up): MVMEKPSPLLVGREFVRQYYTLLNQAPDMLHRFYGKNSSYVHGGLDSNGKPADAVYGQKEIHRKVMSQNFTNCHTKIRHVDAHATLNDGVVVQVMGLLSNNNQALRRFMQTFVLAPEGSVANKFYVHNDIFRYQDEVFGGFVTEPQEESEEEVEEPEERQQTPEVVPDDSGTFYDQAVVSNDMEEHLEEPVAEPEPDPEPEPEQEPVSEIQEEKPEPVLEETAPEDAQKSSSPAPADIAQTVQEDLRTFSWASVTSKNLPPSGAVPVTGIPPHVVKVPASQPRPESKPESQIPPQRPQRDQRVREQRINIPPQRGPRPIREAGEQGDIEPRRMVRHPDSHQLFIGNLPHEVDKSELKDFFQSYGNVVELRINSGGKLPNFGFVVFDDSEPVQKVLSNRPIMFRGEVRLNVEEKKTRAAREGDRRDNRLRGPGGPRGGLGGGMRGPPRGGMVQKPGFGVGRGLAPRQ
All sequences stand within: GGGAGUUCUACAGUCCGACGAUC … UGGAAUUCUCGGGUGUCAAGG
CACAGACAGCACGCACCCACACAGACACAGAGGGAAGGGGUUGGGAUGGGGACAGGGUGCACAGCAGGGCGGGGUAGGACCCCAGCCCCU: -0.207
CUCAAGUCCUGUGCUACACAUCGUAUGUACCGAAUCGGAAGGGAAGGGGAAGGAAAGUAUUAUGUUACGCCGUUCGGAUCUGCACUUCCA: -0.188
ACCAUGCAGGUGGGCAUCUUUGGGAAGUGGGGCAAGGGGGGCAUAGGGAGGGGGGUAACACUUUGGGAACAGGUGGUCCCAGGUCGUUUC: 0.924
CUCAAGUCCUGUGCUACACAUCGUAUGUACCGAAUCGGGUGGGAAAGGGUGGGAAAGUAUUAUGUUACGCCGUUCGGAUCUGCACUUCCA: 0.783
CAAGUCCUGUGCUACACAUCGUAUGUACCGAAUCGGUUUUGGUUUUGGGUUUUGGAAAGUAUUAUGUUACGCCGUUCGGAUCUGCACUUC: -0.264
AAGUCCUGUGCUACACAUCGUAUGUACCGAAUCGGGGAAAGGGAAAGGGGAAAGGGGAAAGUAUUAUGUUACGCCGUUCGGAUCUGCACU: 0.495
AGUCCUGUGCUACACAUCGUAUGUACCGAAUCGGGGUUUUGGGUUUUGGGUUUUGGGAAAGUAUUAUGUUACGCCGUUCGGAUCUGCACU: 0.468
AAGUCCUGUGCUACACAUCGUAUGUACCGAAUCGGGCCCCCGGCCCCCGGCCCCCGGAAAGUAUUAUGUUACGCCGUUCGGAUCUGCACU: -0.497
UCCUGUGCUACACAUCGUAUGUACCGAAUCGGGUUUUUGGGUUUUUGGGUUUUUUUGGGAAAGUAUUAUGUUACGCCGUUCGGAUCUGCA: 0.0295
CCUGUGCUACACAUCGUAUGUACCGAAUCGGGUUUUUUUGGUUUUUUUGGUUUUUUUGGGGAAAGUAUUAUGUUACGCCGUUCGGAUCUG: -0.358
GCAGGAAGUAAAAACAAAUGGAAAUGCUUCGGAUAGUGGCAGGGGUGGGUGUUGCUAAGGAAAGGGUGGGAUGGGAGUGGGUAAAGAGUU: 1.21
CACAGACAACACGCACCCACACAGACACAGAGGGAAGGGGUUGGUAUGGGGACAGGGUGCACAGCAGGGCGGGGUAGGACCCCAGCCCCU: -0.0833
AGUCCUGUGCUACACAUCGUAUGUACCGAAUCGGGGUUUUUGGUUUUUGGUUUUUGGAAAGUAUUAUGUUACGCCGUUCGGAUCUGCACU: -0.245
CCUGUGCUACACAUCGUAUGUACCGAAUCGGUUUUUUUGGUUUUUUUGGGUUUUUUUGGGAAAGUAUUAUGUUACGCCGUUCGGAUCUGC: -0.398

Series 3 — technique: aptamer microarray, sandwich; molecule type: DNA with 2'F-ANA; matrix: in vitro; tested at: 200 nM; with: Cy3 exosite-II aptamer, 400 nM; reading: higher = stronger binding; measurement: mean fluorescence intensity; sequence: GGTTGGTGTGGTTGG
Target: Prothrombin, mature alpha-thrombin (F2, Homo sapiens, UniProt P00734)
Notes: whole 15-mer aptamer, many near background
2'F-ANA at 5 6 8 9 10: 42.9 a.u.
2'F-ANA at 1 4 5 12 13: 77.5 a.u.
2'F-ANA at 9 12 13 15: 612 a.u.
2'F-ANA at 1 4 5 8 10 11 12 14 15: 48.1 a.u.
2'F-ANA at 1 5 7 9 10 12 13: 65.8 a.u.
2'F-ANA at 2 3 6 10 11 13 15: 281 a.u.
2'F-ANA at 2 4 9 10 15: 93 a.u.
2'F-ANA at 1 3 4 5 6 7 9 12: 130 a.u.
2'F-ANA at 3 5 8 9 10 11 14: 52.1 a.u.
2'F-ANA at 3 5 9 10 14 15: 49.1 a.u.
2'F-ANA at 1 9 11 12 15: 318 a.u.
2'F-ANA at 3 4 6 8 9 11 12 14 15: 229 a.u.
2'F-ANA at 4 5 8 9 10 12 13 15: 47.7 a.u.
2'F-ANA at 1 3 4 5 6 7 9 10 14 15: 46.8 a.u.
2'F-ANA at 1 2 4 5 7 8 12 15: 114 a.u.
2'F-ANA at 2 3 5 11 12: 212 a.u.
2'F-ANA at 3 5 7 8 10 11 13 14 15: 56.8 a.u.
2'F-ANA at 1 3 4 9 10 11 12 15: 80.2 a.u.
2'F-ANA at 1 3 4 5 6 8 9 10 13 15: 48.5 a.u.
2'F-ANA at 2 3 5 6 7 9 10 11 13: 51.5 a.u.

Series 4 — technique: RNA Bind-n-Seq; molecule type: RNA; matrix: in vitro; tested at: 365 nM; reference: no-protein control; reading: higher = stronger binding; measurement: RBNS enrichment (R)
Target: RNA binding protein fox-1 homolog 2, RRM domain, GST-SBP tag (RBFOX2, Homo sapiens, UniProt O43251-10, residues 100-194)
Notes: natural RNA segment, single round, ends assumed
All sequences stand within: GGGAGUUCUACAGUCCGACGAUC … UGGAAUUCUCGGGUGCCAA
Target sequence (chain): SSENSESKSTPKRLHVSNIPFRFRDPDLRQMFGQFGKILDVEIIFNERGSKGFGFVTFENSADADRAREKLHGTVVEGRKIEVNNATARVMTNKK
CCUGAGCAUGGGGUUCCGGCUGUCACUCAGGCUCAGAGACCCAGCUGGGCUGGGCUUUGCCUUUCAGCAUUCUGUCUGUCUCACUGGUCAUGCAUUGUUCCAUAGUCGCC: 0.566
ACAUCCUGAUUUCACUGCCUCAGAUGUGCCUGGCCACAAAGCACUCUGAACUAAUUCCUAAAGAGAAGCAACAAUAUGUGUAUGUGGGGGGGUUGAUCACAUACAUGUAC: 0.833
GCAUGGAGAGAUGGUCAUUUCGUGGUCUACUGGAUGAGGCCUAUAGUUGAGACUUGUAGACAUUUAUUUAUACUGUGUCAUGUUUUAUAAUUUAUACAUAAAAUGUCUGG: 30.5
AUGACUUCCUAGGGUUCUGAAAUUCAUAGACUAAGAGAAAACUGUGUAUAGCUUGCCCGAACAGGAGUCCUUACUGAUAUUUAUUGAACAGUCGAUUCCCCUACCCGCCC: 1.12
GCAAUCUUACAAUUUGACCAGAGAAUAUUUUUUAUUAGUACUAGUUGUUAUUACCUAUAAUUGAGAAUAAGAAAAAUAUGGAAAGUUCCCUCAAAACAGAGAGAUGCUCU: 0.484
AAUAUUCUGAUUUUUAUCUAUUUCUUUAUUCAUAAAGUUGGCACAGAGUCACAAUGCAACCUAAAGUAGUUCAUGUAAGAAACAGAAUAUUUUGUCCUUUCUUCUCAUAC: 0.477
CUUGGCCUCCCUAGGCUAUAUCUGGGACUGGGGGGAUGACAUGCUCCCACUCUGGCUCCUUGUUCUCUGGCAAACCGUAGCGUGGCUGCCAGCAUCCUGUAGCGCGGAUA: 1.49
GCCAGUCUCUGAGGACGCUGCCACCCUAGAGCACAUGCAUGCCCAGCCAUUCUUCCUGCUUCUGGCCUCGGAGCUGCUUGUCUCCAGAUGCCCUCCUGAAACCAUGAGAA: 20.6
GUGAAAGGUGCUGAUGGCCCUCAUCUCCAGCUAACUGUGGAGAAGCCCCUGGGGGCUCCCUGAUUAAUGGAGGCUUAGCUUUCUGGAUGGCAUCUAGCCAGAGGCUGGAG: 0.442
UUUCUCCAGUAUAUUGUUGGUCACUCACAAAUGAUUCAUUUGAACACAUUUUAGGGAUAAGUAAUCAAAACCAUGAACUUUUAUUUGACUUCCCACCAAUGUCUAAACUA: 0.448
GCUAUUUCGUGGAACUUGGAACACAGCCUGCCACCCAGUGAAGUGUCCAGACCAUUGUCUUCCAACCCCAGCUGGCCUCUAGAACACCCACUGGCCAGUCCUAGAGCUCC: 0.634
CUUCAAUUGCUUUGCACUUUUCCGUUUCAGCGGAAGACCUGAAGAGUGGUCAGAACAGAGCCUUUGAUUUUUAUUAUGGUUAUUUUAUUGAUUAUUACUGGCAAAAACGG: 0.35

For quick reference, copied from above (series 2):
AAGUCCUGUGCUACACAUCGUAUGUACCGAAUCGGGCCCCCGGCCCCCGGCCCCCGGAAAGUAUUAUGUUACGCCGUUCGGAUCUGCACU: -0.497
UCCUGUGCUACACAUCGUAUGUACCGAAUCGGGUUUUUGGGUUUUUGGGUUUUUUUGGGAAAGUAUUAUGUUACGCCGUUCGGAUCUGCA: 0.0295
CCUGUGCUACACAUCGUAUGUACCGAAUCGGGUUUUUUUGGUUUUUUUGGUUUUUUUGGGGAAAGUAUUAUGUUACGCCGUUCGGAUCUG: -0.358
GCAGGAAGUAAAAACAAAUGGAAAUGCUUCGGAUAGUGGCAGGGGUGGGUGUUGCUAAGGAAAGGGUGGGAUGGGAGUGGGUAAAGAGUU: 1.21
CACAGACAACACGCACCCACACAGACACAGAGGGAAGGGGUUGGUAUGGGGACAGGGUGCACAGCAGGGCGGGGUAGGACCCCAGCCCCU: -0.0833
